Experimental data collected from several papers.
Organism: Acinetobacter baumannii

COc1ccc2ccc3c(c2c1)C=[N+]1C2CCCCC2[N+]2=Cc4c(C)cccc4[O][Au-]21[O]3.F[P-](F)(F)(F)(F)F (stereo not shown)  MIC (bacterial growth, broth microdilution; carbapenem-resistant clinical isolate; 24 h): > 20 µM
NC[C@@H]1O[C@H](O[C@H]2[C@@H](O)[C@H](O[C@@H]3[C@@H](O)[C@H](N)C[C@H](N)[C@H]3O[C@H]3O[C@H](CO)[C@@H](SCCF)[C@H](O)[C@H]3N)O[C@@H]2CO)[C@H](N)[C@@H](O)[C@@H]1O  MIC (reference strain): 8 to 16 µg/mL
Nc1nc(-c2ccc3nc(-c4ccccc4)[nH]c3c2)c[nH]1  MIC (microbial growth, broth dilution; AB5075): ≥ 200 µM
COc1ccc2c(c1)C=[N+]1C3CCCCC3[N+]3=Cc4c(ccc5ccc(OC)cc45)[O][Au-]13[O]2.F[P-](F)(F)(F)(F)F (stereo not shown)  MIC (bacterial growth, broth microdilution; carbapenem-resistant clinical isolate; 24 h): > 20 µM
NCC1OC(OC2C(N)CC(N)C(OC3OC(CO)C(O)C(N)C3O)C2OCCCCCCCCn2cc(CNc3nc(NCc4cn(CCCCCCCCOC5C(OC6OC(CN)C(O)CC6N)C(N)CC(N)C5OC5OC(CO)C(O)C(N)C5O)nn4)nc(NCc4cn(CCCCCCCCOC5C(OC6OC(CN)C(O)CC6N)C(N)CC(N)C5OC5OC(CO)C(O)C(N)C5O)nn4)n3)nn2)C(N)CC1O (stereo not shown)  MIC (microbial growth, broth dilution; ATCC17978): > 128 µg/mL
CC[C@@H](C)[C@@H](NC(=O)[C@@H](C)NC(=O)[C@@H](CCCCN)NC(=O)[C@@H](CC(C)C)NC(=O)[C@@H](CC(C)C)NC(=O)[C@H](NC(=O)[C@@H](CCCCN)NC(=O)[C@@H](CC(C)C)NC(=O)[C@@H](C)NC(=O)[C@@H](CCCCN)NC(=O)[C@@H](CCCCN)NC(=O)[C@@H](CCCCN)NC(=O)[C@@H](C)NC(=O)[C@@H](CCCCN)NC(=O)[C@@H](CO)NC(=O)[C@@H](Cc1ccccc1)NC(=O)[C@H](NC(=O)[C@@H](CCCCN)NC(=O)[C@@H](CC(C)C)NC(=O)[C@@H](Cc1ccccc1)NC(=O)[C@@H](CO)NC(=O)[C@@H](CCCCN)NC(=O)[C@@H](Cc1c[nH]c2ccccc12)NC(=O)[C@@H](CCCCN)NC(C)=O)[C@H](C)O)[C@H](C)O)C(=O)N[C@H](CO)C(=O)N[C@H](CCCCN)C(N)=O  MIC (899, Mueller-Hinton broth; 24 h, 37 °C): 0.7 µM
CC(C)CCCCC(=O)N[C@@H](CCN)C(=O)N[C@H](C(=O)N[C@@H](CCN)C(=O)N[C@H]1CCNC(=O)[C@H]([C@@H](C)O)NC(=O)[C@H](CCN)NC(=O)[C@H](CCN)NC(=O)[C@H](CC(C)C)NC(=O)[C@@H](Cc2ccccc2)NC(=O)[C@H](CCN)NC1=O)[C@@H](C)O  MIC (broth microdilution; ATCC 19606; 37 °C): 0.25 µg/mL
CCn1cc(C(=O)NCCNCCO)c(=O)c2cc(OCc3ccc(C(C)(C)C)cc3)c(Cl)cc21  MIC (ATCC 19606; ≥80% growth inhibition): < 0.25 µg/mL
CO[C@@H](C(N)=O)[C@H](NC(=O)c1ccc(NC(=O)c2ccc([N+](=O)[O-])cc2)cc1)C(=O)Nc1ccc(C(=O)Nc2ccc(C(=O)Nc3ccc(C(=O)O)cc3)c(O)c2OC(C)C)cc1  MIC (microbial growth; DSM30008): 1 µg/mL
CCCCCCCNS(=O)(=O)c1ccc(-n2nnc(/C(C)=N/NC(=N)N)c2C)cc1  MIC (broth microdilution; AB5075; 18 to 20 h, 37 °C): > 64 µg/mL
COc1ccc2ccc3c(c2c1)C=[N+]1C2CCCCC2[N+]2=Cc4ccc(C)cc4[O][Au-]21[O]3.F[P-](F)(F)(F)(F)F (stereo not shown)  MIC (bacterial growth, broth microdilution; carbapenem-resistant clinical isolate; 24 h): > 20 µM
CC(C)C[C@H](NC(=O)[C@H](CC(N)=O)NC(=O)[C@H](CCCNC(=N)N)NC(=O)[C@@H](CC(C)C)NC(=O)[C@H](Cc1ccc2ccccc2c1)NC(=O)[C@H](CC(=O)O)NC(=O)[C@H](CCCCN)NC(=O)[C@@H](CC(C)C)NC(=O)[C@H](CCCNC(=N)N)NC(=O)[C@H](CCC(N)=O)NC(=O)[C@@H](NC(=O)[C@@H](CC(C)C)NC(=O)[C@H](CCCNC(=N)N)NC(=O)[C@H](CCCCN)NC(=O)[C@H](Cc1ccc(C(F)(F)F)cc1)NC(=O)CN)C(C)C)C(=O)N[C@H](C(N)=O)C(C)C  MIC (broth microdilution; B2367-12): 3.1 µM
COc1ccc(-c2nc3ccc(-c4c[nH]c(N)n4)cc3[nH]2)cc1  MIC (ATCC 19606; compound alone): ≥ 200 µM
C/C(=N\NC(=N)N)c1nnn(-c2ccc(S(=O)(=O)NCC(C)C)cc2)c1C  MIC (microbial growth, broth dilution; AB5075): 8 µg/mL
CCCS[C@H]1[C@H](O)[C@@H](N)[C@@H](O[C@H]2[C@H](O[C@@H]3O[C@H](CO)[C@@H](O[C@H]4O[C@@H](CN)[C@@H](O)[C@H](O)[C@H]4N)[C@H]3O)[C@@H](O)[C@H](N)C[C@@H]2N)O[C@@H]1CO  MIC (reference strain): 8 µg/mL
COc1ccc2ccc3c(c2c1)C=[N+]1C2CCCCC2[N+]2=Cc4cc(C)ccc4[O][Au-]21[O]3.F[P-](F)(F)(F)(F)F (stereo not shown)  MIC (bacterial growth, broth microdilution; carbapenem-resistant clinical isolate; 24 h): > 20 µM
CC[C@@H](C)[C@@H](NC(=O)[C@@H](C)NC(=O)[C@@H](CCCCN)NC(=O)[C@@H](CC(C)C)NC(=O)[C@@H](C)NC(=O)[C@H](NC(=O)[C@@H](Cc1c[nH]cn1)NC(=O)[C@@H](CC(C)C)NC(=O)[C@H](NC(=O)[C@H](NC(=O)[C@@H](CCCCN)NC(=O)[C@H](NC(=O)[C@@H](C)NC(=O)[C@@H](CO)NC(=O)[C@@H](CCCCN)NC(=O)[C@@H](Cc1ccccc1)NC(=O)[C@H](NC(=O)[C@@H](CCCCN)NC(=O)[C@@H](CC(C)C)NC(=O)[C@@H](Cc1ccccc1)NC(=O)[C@@H](CO)NC(=O)[C@@H](CCCCN)NC(=O)[C@@H](Cc1c[nH]c2ccccc12)NC(=O)[C@@H](CCCCN)NC(C)=O)[C@H](C)O)C(C)C)[C@H](C)O)C(C)C)[C@H](C)O)C(=O)N[C@H](CO)C(=O)N[C@H](CO)C(N)=O  MIC (broth microdilution; ATCC 17978; 24 h, 37 °C): 0.7 µM
c1ccc(CN2CCOCCOCCN(CCCCCCCCCCCCCCN3CCOCCOCCN(CCCCCCCCCCCCCCN4CCOCCOCCN(Cc5ccccc5)CCOCCOCC4)CCOCCOCC3)CCOCCOCC2)cc1  MIC (meropenem-resistant): 12 µM
O=C(NCCNCCO)c1cn(Cc2ccc(F)cc2)c2cc(Cl)c(OCc3ccc(C(F)(F)F)cc3)cc2c1=O  MIC (ATCC 19606; ≥80% growth inhibition): 1 µg/mL
CC(C)C[C@H](NC(=O)[C@H](CC(N)=O)NC(=O)[C@H](CCCNC(=N)N)NC(=O)[C@@H](CC(C)C)NC(=O)[C@H](Cc1ccccc1)NC(=O)[C@H](CC(=O)O)NC(=O)[C@H](CCCCN)NC(=O)[C@@H](CC(C)C)NC(=O)[C@H](CCCNC(=N)N)NC(=O)[C@H](CCC(N)=O)NC(=O)[C@@H](NC(=O)[C@@H](CC(C)C)NC(=O)[C@H](CCCNC(=N)N)NC(=O)[C@H](CCCCN)NC(=O)[C@H](Cc1ccc(-c2ccccc2)cc1)NC(=O)CN)C(C)C)C(=O)N[C@H](C(N)=O)C(C)C  MIC (broth microdilution; B2367-12): 3.1 µM
CC(C)C[C@@H]1NC(=O)[C@@H](CC(C)C)NC(=O)[C@H](CCN)NC(=O)[C@@H](NC(=O)[C@H](CCN)NC(=O)[C@@H](N)[C@@H](C)O)CCNC(=O)[C@H]([C@@H](C)O)NC(=O)[C@H](CCN)NC(=O)[C@H](CCN)NC1=O  MIC (broth microdilution; ATCC 17978, CAMHB with polysorbate-80; 16 h): > 64 µg/mL
CCn1[c]([Au-]([Cl])([Cl])[Cl])[n+](CC)c2ccc(C(=O)OC)cc21  MIC (broth dilution; DSM 30007; 20 h, 37 °C): 7.5 µM
CCCCCCCCCC(=O)NCCCC[C@@H](NC(=O)[C@@H](CC(C)C)NC(=O)[C@@H](CCCCN)NC(=O)[C@@H](CCCCNC(=O)[C@@H](CC(C)C)NC(=O)[C@@H](CCN)NC(=O)[C@@H](CCCCNC(=O)[C@@H](Cc1ccccc1)NC(=O)[C@H](N)CCCN)NC(=O)[C@@H](Cc1ccccc1)NC(=O)[C@H](N)CCCN)NC(=O)[C@@H](CC(C)C)NC(=O)[C@@H](CCN)NC(=O)[C@@H](CCCCNC(=O)[C@@H](Cc1ccccc1)NC(=O)[C@H](N)CCCN)NC(=O)[C@@H](Cc1ccccc1)NC(=O)[C@H](N)CCCN)C(N)=O  MIC (broth microdilution; ATCC 19606; 37 °C): 8 µg/mL
CC1=C[C@@]2(C)C(=C(C)[C@H]3[C@@H]4C[C@H](C)C[C@H](C)[C@H]4[C@H]4Oc5ccc(cc5)C[C@@H]5C(=O)NC(=O)[C@H]5C(=O)[C@@H]2[C@@H]43)[C@H]1C  MIC (broth microdilution; ATCC BAA-1605; together with: colistin 0.1 µM): 12.5 µM
CCn1cc[n+](CC)[c]1[Au-]([Cl])([Cl])[Cl]  MIC (broth dilution; DSM 30007; 20 h, 37 °C): 2.3 µM

A few entries again:
CCCCCCCNS(=O)(=O)c1ccc(-n2nnc(/C(C)=N/NC(=N)N)c2C)cc1  MIC (broth microdilution; AB5075; 18 to 20 h, 37 °C): > 64 µg/mL
CCn1[c]([Au-]([Cl])([Cl])[Cl])[n+](CC)c2ccc(C(=O)OC)cc21  MIC (broth dilution; DSM 30007; 20 h, 37 °C): 7.5 µM
